Results from different studies.
Numbered parts are unrelated; each lists some results of a single study. Changes are numbered by the printed parent chain.

Sample 1 — technique: RNA Bind-n-Seq; form: RNA; matrix: in vitro; tested at: 365 nM; relative to: no-protein control; reading: higher = stronger binding; endpoint: RBNS enrichment (R)
Target: RNA binding protein fox-1 homolog 2, RRM domain, GST-SBP tag (RBFOX2, Homo sapiens, UniProt O43251-10, residues 100-194)
Setting: natural RNA segment, single round, ends assumed
Residues (chain): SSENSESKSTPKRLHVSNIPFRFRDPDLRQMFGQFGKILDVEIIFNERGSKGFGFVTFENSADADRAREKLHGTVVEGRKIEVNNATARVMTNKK
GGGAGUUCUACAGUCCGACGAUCAAUACAGGGUUUUGAAAACAUGAAGGAAAUGAGAGUUUCCCCCCAUUCCUGAUUUAGCUAUUAUUUCUUUGUCUGAAGUCUGCCAUACUCACUUUGGGCCAGAGAGAGGUUGGAAUUCUCGGGUGCCAA: 0.344
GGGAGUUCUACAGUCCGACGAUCUAUAAAUAUUUCCUAGCAAGGAUCAUAAGCCCAAUUUCCGGAUUUGCCCCUCUGAGAAGCAUGAAUGAGCUCACAUUAGUACUGAGAAGUUUGAAGACCAAGAAAUCCUGUGGAAUUCUCGGGUGCCAA: 7.05
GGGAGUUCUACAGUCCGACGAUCUAAAGAUUCCUGGCAUACAGGCCUGCUCUAUAAAUUUGUUUUCCCCUUCCCUGCCAGCAGUCUUCUCCAUACACGACAGGGCGUGUUCUCCACCAGGCCUGUAACAUCUUUGGAAUUCUCGGGUGCCAA: 0.899
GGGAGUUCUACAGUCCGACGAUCUUCAGUUUUCUGUUGGGAUCAGAGUGAGGAUACUUCCAUAUGGGUGAUAGCAGCCAUGCCCCUGGGAGUCAACUUCAAGGAUCUGGGACAUUUUGGUGUGCCCAUUCCUUUGGAAUUCUCGGGUGCCAA: 0.237
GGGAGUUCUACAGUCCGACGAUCAGCGGCUGGAUCUCCAGGGACGCGUCUUGAGCUGAGACGCUUUGAAAGCCAGGGUGAUGCUCAGACAGUGUGCCAGCCAAAAUGACUUGGGGGAGGGGAGCCGCUUCCCCUGGAAUUCUCGGGUGCCAA: 0.53

Sample 2 — target: CCNE1, cyclin fold, Cln2 fusion (human); technique: yeast growth competition, sequencing; matrix: yeast; setting: strong parent motif; relative to: not given; reading: higher = stronger binding; endpoint: normalised enrichment score
Starting sequence: BRCA2 docking peptide (human); PSIKRNLLNEFDR; partner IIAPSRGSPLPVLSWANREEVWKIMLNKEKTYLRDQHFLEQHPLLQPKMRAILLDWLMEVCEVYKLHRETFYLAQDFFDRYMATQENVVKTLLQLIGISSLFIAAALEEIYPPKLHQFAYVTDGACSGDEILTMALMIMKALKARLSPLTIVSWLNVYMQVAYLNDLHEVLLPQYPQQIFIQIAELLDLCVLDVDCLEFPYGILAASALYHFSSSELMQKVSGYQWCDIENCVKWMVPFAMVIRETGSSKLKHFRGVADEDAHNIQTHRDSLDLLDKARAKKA
PSIKWNLLNEFDR [R5W]: 0.834
VSIKRNLLNEFDR [P1V]: 2.06
PSIKRNLLNEFDH [R13H]: 1.37

Sample 3 — technique: protein binding microarray; form: double-stranded DNA, one strand shown; matrix: in vitro; tested at: not given; relative to: not given; reading: higher = stronger binding; endpoint: E-score
Target: Histone acetyltransferase KAT6A, both winged helices, GST fusion (KAT6A, Homo sapiens, UniProt Q92794, residues 1-181)
Setting: 8-mer, flanks averaged, mean of 2 arrays, mostly near background
Construct (chain): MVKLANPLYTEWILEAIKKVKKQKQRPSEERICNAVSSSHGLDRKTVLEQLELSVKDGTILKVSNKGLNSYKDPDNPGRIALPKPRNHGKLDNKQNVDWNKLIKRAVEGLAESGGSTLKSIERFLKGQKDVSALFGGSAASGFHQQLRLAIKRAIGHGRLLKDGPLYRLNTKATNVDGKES
GTTGTCCA: -0.0681
GATCTGGC: -0.0456
TACCGAGA: -0.0225
AGCTTTAT: -0.133
AGTGTTAG: -0.176
ACTAACAA: -0.0981
CATACTAG: -0.175

Further values, each from its own experiment
PhoQ, residues 284 288 289 292 302 303 TNSAEL
fold induction (PhoP, residues 12 14 15 18 19 NIMAP (Escherichia coli, UniProt P23836); Sort-seq, refers to: YFP reporter; E. coli; PhoQ-PhoP variant library, together with: 10 µM Mg2+; relative to: high Mg2+ state, higher = stronger signaling): 0.752

Some of these lines once more (sample 1):
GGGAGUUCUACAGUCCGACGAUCUUCAGUUUUCUGUUGGGAUCAGAGUGAGGAUACUUCCAUAUGGGUGAUAGCAGCCAUGCCCCUGGGAGUCAACUUCAAGGAUCUGGGACAUUUUGGUGUGCCCAUUCCUUUGGAAUUCUCGGGUGCCAA: 0.237
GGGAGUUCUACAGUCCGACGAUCAGCGGCUGGAUCUCCAGGGACGCGUCUUGAGCUGAGACGCUUUGAAAGCCAGGGUGAUGCUCAGACAGUGUGCCAGCCAAAAUGACUUGGGGGAGGGGAGCCGCUUCCCCUGGAAUUCUCGGGUGCCAA: 0.53
